Results of several laboratories.
Every numbered part comes from another study and shows a few of its results, in no order.

Set 1
Target: Histone acetyltransferase KAT6A, winged helix 1, GST fusion (KAT6A, Homo sapiens, UniProt Q92794, residues 1-85)
Technique: protein binding microarray
Form: double-stranded DNA, one strand shown
Medium: in vitro
Tested at: not given
Setting: 8-mer, flanks averaged, mean of 2 arrays, mostly near background
Relative to: not given
Reading: higher = stronger binding
Construct (chain): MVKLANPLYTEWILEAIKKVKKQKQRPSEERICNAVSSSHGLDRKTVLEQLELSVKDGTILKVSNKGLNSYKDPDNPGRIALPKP
The E-score of `GAGTTCGC` is reported as 0.134.
`ACGTACGA` gave an E-score of 0.00511.
For `CTTCAGCC`, the E-score was -0.243.
With `GTACACCA` the E-score was -0.151.
For `GCACGGAC`, the E-score was 0.28.

Set 2
Target: Transcriptional repressor CTCF (CTCF, Homo sapiens, UniProt P49711, residues 1-727, full length assumed)
UniProt P49711, sequence (whole entry, looked up): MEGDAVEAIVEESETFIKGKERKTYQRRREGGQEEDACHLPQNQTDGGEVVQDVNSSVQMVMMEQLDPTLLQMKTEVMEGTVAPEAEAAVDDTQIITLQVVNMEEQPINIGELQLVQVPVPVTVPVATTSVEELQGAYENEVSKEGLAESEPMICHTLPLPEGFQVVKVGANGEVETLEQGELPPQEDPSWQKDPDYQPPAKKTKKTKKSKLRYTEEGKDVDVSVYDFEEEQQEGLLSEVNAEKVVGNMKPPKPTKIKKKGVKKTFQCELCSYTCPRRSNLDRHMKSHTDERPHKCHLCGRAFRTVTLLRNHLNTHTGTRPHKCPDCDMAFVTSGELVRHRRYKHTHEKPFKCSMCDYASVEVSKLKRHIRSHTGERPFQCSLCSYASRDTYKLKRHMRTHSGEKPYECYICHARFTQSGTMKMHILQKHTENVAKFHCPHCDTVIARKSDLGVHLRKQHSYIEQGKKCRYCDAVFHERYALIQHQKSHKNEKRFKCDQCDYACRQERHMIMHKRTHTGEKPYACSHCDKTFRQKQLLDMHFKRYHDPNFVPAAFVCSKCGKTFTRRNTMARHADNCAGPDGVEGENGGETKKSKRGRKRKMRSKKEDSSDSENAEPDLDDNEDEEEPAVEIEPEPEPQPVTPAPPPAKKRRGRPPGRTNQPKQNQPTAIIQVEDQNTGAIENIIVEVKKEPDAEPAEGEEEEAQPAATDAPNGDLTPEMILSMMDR
Technique: protein-binding microarray
Form: double-stranded DNA, one strand shown
Medium: in vitro
Tested at: not given
Setting: k-mer, scored over probes, only values ≥0.25
Reading: higher = stronger binding
For `AATACAAC`, the E-score was 0.301.
The E-score of `TTATACAA` is reported as 0.252.
For `CCCTATCG`, the E-score was 0.267.
`ATACAAAT` has an E-score of 0.352.
`ATAATCAG` gave an E-score of 0.358.

Set 3
Target: TAR DNA-binding protein 43, full length, His tag (TARDBP, Homo sapiens, UniProt Q13148, residues 1-414)
Technique: RNA Bind-n-Seq
Form: RNA
Medium: in vitro
Tested at: 20 nM
Setting: 6-mer, flanks averaged, single round
Added: 150 mM LiCl
Relative to: input library
Reading: higher = stronger binding
`GGCCGG`: “6-mer enrichment (R)” 1.1.
`CAUCAC`: “6-mer enrichment (R)” 0.845.
`AGGAUU`: “6-mer enrichment (R)” 0.869.
`CAUAGU` — result for “6-mer enrichment (R)”: 0.893.
`CGUAAU` — result for “6-mer enrichment (R)”: 0.885.
`CGGCCC` — result for “6-mer enrichment (R)”: 1.04.
Under “6-mer enrichment (R)”, `AGUUAA` is recorded as 0.924.

Further values, each from its own experiment
With `PhoQ, residues 284 288 289 292 302 303 ALASRC` the fold induction was 3.57 (PhoP, residues 12 14 15 18 19 SMASL (Escherichia coli, UniProt P23836); Sort-seq, item: YFP reporter; E. coli; PhoQ-PhoP variant library, added: 10 µM Mg2+; relative to: high Mg2+ state, higher = stronger signaling).
